Experimental data pooled from the literature.
“And” joins repeats or separate records; there may be more than shown. ± gives the spread as reported.
rep main protease: Replicase polyprotein 1ab, main protease (rep, Severe acute respiratory syndrome coronavirus 2, UniProt P0DTD1)
Spike glycoprotein: Spike glycoprotein (Severe acute respiratory syndrome coronavirus 2, UniProt P0DTC2)

O=C1Nc2ccc(Cl)cc2[C@@](C#CC2CC2)(C(F)(F)F)O1 gave an EC50 of 0.0037 ± 0.0007 µM (HIV-1; viral replication, single-round infection; RT mutant D67E).
The remaining activity of CC(C)c1nccn1C(C)C(=O)N1CCC(Oc2ncccn2)CC1 (centres unmarked) is reported as 62% (Lassa mammarenavirus; viral replication; Huh-7; 10 µM, 72 h).
Nc1ncnc2c([C@@H]3N[C@H](CO)[C@@H](O)[C@H]3O)c[nH]c12: “viral RNA copies” 2.48e+07 copies/mL (Marburg virus; HeLa, Musoke; 0.4 µM, 1 h).
`KVTFFPDLNGDVVAI` has a responding donors of 15% (human CD4 T cells; AIM; peptide).
NC(=O)CCNC(=O)c1ccccc1S has an EC50 of 10.7 ± 2.38 µM (HIV-1; viral replication; human PBMC, group O BCF02, CCR5-tropic clinical isolate).
With `EFVFKNIDGYFKIYS` the responding donors was 18% (human CD4 T cells; AIM; peptide).
With Cc1ccccc1OC1CCN(C(=O)C2CC(=O)N(C(C)(C)C)C2)CC1 (centres unmarked) the remaining activity was 39% (Lassa mammarenavirus; viral replication; Huh-7; 10 µM, 72 h).
Cn1cnc(Cn2c(=O)[nH]/c(=N\c3cc4cn(C)nc4cc3Cl)n(Cc3cc(F)c(F)cc3F)c2=O)n1 — result for “patients with adverse event”: 0% (human, mild renal impairment; oral, 375 mg, decreased GFR TEAE, moderate severity).
For Cc1cc(/C=C/C#N)cc(C)c1Nc1ccnc(Nc2ccc(C#N)cc2)n1, the EC50 was 0.0001 ± 1e-05 µM (HIV-1; viral replication, single-round infection; RT mutant G190S).
For O=C(O)CCC(=O)C(=O)O, the inhibition was -0.263% (rep main protease; reporter gene (mKate2), inhibitor; 20 µM).
Cc1cccc(-c2ccc(NC(=O)C3CCN(C(=O)CSc4ccncc4)CC3)cc2)c1 has a remaining activity of 29% (Lassa mammarenavirus; viral replication; Huh-7; 10 µM, 72 h).
COc1ccc2cc3[n+](cc2c1OC)CCc1cc2c(cc1-3)OCO2 has an inhibition of 25 ± 0.9% (SARS-CoV-2 envelope protein; Vero C1008; 5 µg/mL).
For CC[C@H](C)[C@H](NC(=O)[C@H](CC(C)C)NC(=O)[C@H](Cc1c[nH]c2ccccc12)NC(=O)[C@H](CCC(N)=O)NC(=O)[C@@H](NC(=O)[C@H](Cc1ccccc1)NC(=O)[C@H](C)NC(=O)[C@H](CCCCNC(=O)COCCOCCNC(=O)COCCOCCNC(=O)CC[C@H](NC(=O)CCCCCCCCCCCCCCCCCCC(=O)O)C(=O)O)NC(=O)[C@H](CCC(N)=O)NC(=O)[C@H](C)NC(=O)[C@@H](NC(=O)[C@H](CCCCN)NC(=O)[C@H](CC(=O)O)NC(=O)[C@H](CC(C)C)NC(=O)C(C)(C)NC(=O)[C@@H](NC(=O)[C@H](CO)NC(=O)[C@H](Cc1ccc(O)cc1)NC(=O)[C@H](CC(=O)O)NC(=O)[C@H](CO)NC(=O)[C@@H](NC(=O)[C@H](Cc1ccccc1)NC(=O)[C@@H](NC(=O)CNC(=O)[C@H](CCC(=O)O)NC(=O)C(C)(C)NC(=O)[C@@H](N)Cc1ccc(O)cc1)[C@@H](C)O)[C@@H](C)O)[C@@H](C)CC)[C@@H](C)CC)C(C)C)C(=O)N[C@@H](C)C(=O)NCC(=O)NCC(=O)N1CCC[C@H]1C(=O)N[C@@H](CO)C(=O)N[C@@H](CO)C(=O)NCC(=O)N[C@@H](C)C(=O)N1CCC[C@H]1C(=O)N1CCC[C@H]1C(=O)N1CCC[C@H]1C(=O)N[C@@H](CO)C(N)=O, “subjects with adverse event” read 16.7% (refers to: treatment-emergent back pain; healthy subjects; 0.5 mg, multiple ascending dose).
Cc1cn([C@H]2C[C@H](N=[N+]=[N-])[C@@H](CO)O2)c(=O)[nH]c1=O has an EC50 of 0.00888 ± 0.00081 µM (HIV-1; viral replication; human PBMC, subtype A 92UG029, CXCR4-tropic clinical isolate).
For CNC(=O)[C@@H](NC(=O)[C@H](CC(C)C)[C@H](O)C(=O)NO)C(C)(C)C, the remaining activity was 70.1% and 69.7% and 72.3% (Daboia russelii venom proteases (SVMP); protease activity, inhibitor; MH population; 0.1 µM, together with: azocasein substrate; relative to: venom alone).
For Cc1ccc2nc(Cl)c3cc(C(=O)NCCCN4CCC(C)CC4)sc3c2c1, the maximum response was 61.3% (SARS-CoV-2; cytopathic effect; USA_WA1/2020; round 2, 5-point).
With CCCC(=O)OCSc1ccccc1C(=O)NCCC(N)=O the EC50 was 6.59 ± 8.5 µM (HIV-1; viral replication; human PBMC, subtype A 92UG029, CXCR4-tropic clinical isolate).
With CCCOC(C(=O)OC1CCN(C)CC1)(c1ccccc1)c1ccccc1.Cl the maximal inhibition was 98% (HeLa; Ebola VLP entry).
Cc1cc(/C=C/C#N)cc(C)c1Nc1nc(Nc2ccc(/C=C/C#N)cc2)ncc1N has an EC50 of less than 0.002 µM (HIV-1; viral replication, single-round infection; RT mutant V106A/F227L).
The AC50 of CCCCSCCCNC(=O)C1CCN(Cc2nc(-c3ccc(CC)cc3)oc2C)CC1 is reported as 12.6 µM (SARS-CoV-2; cytopathic effect, cell-based CPE; USA_WA1/2020; round 2, 5-point dilution).
CCCCc1ccc(O)cc1O has an inhibition of -0.934% (rep main protease; reporter gene (mKate2), inhibitor; 20 µM).
For `LPYGK`, the transition enthalpy was 0.2 kcal/mol (DSC; peptide, 6/4 SOPC/cholesterol bilayers; 5 mol%, pH 7.40, SOPC chain melting transition).
Under “fusion time constant”, C/C=C1\NC(=O)C(C(C)O)NC(=O)C(CCCN)NC(=O)C(CCO)NC(=O)CNC(=O)C(CCN)NC(=O)C(NC(=O)CC(O)CCCCCCCCCCC)COC(=O)C(C(O)CCl)NC(=O)C(C(O)C(=O)O)NC1=O (centres unmarked) is recorded as 3 ± 1 min (calcein leakage; DOPC/CHOL liposomes; concentration not given, together with: 20 wt% PEG-8000).
Cn1c(Cn2ccc(C(F)(F)F)c(Oc3cc(Cl)cc(C#N)c3)c2=O)n[nH]c1=O has an EC50 of 0.046 ± 0.014 µM (HIV-1; viral replication, single-round infection; RT mutant D67E).
The Vmax of COP(=S)(OC)Oc1ccc([N+](=O)[O-])c(C)c1 is reported as 0.51 ± 0.06 nmol/min/mg protein (rat CYP3A; midazolam 4-hydroxylation; liver microsomes; concentration not given).
Under “frequency of responding donors”, `SIIAYTMSL` is recorded as 20 (AIM; peptide, CD8+ T cells from PBMC, human donors; HLA-B*08:01 restricted, unit not given; relative to: positive over tested donors).
Cc1nc2n(n1)CC(=O)N[C@@H](C(C)C)CN(C(=O)c1ccc(F)cc1)CC(=O)N[C@@H](CC(C)C)c1nc(cs1)C(=O)N[C@H]2Cc1ccccc1 has a remaining activity of 68% (Lassa mammarenavirus; viral replication; Huh-7; 10 µM, 72 h).
For Cc1cc(/C=C/C#N)cc(C)c1Nc1nc(Nc2ccc3cc(C#N)ccc3c2)ncc1N, the EC50 was greater than 0.007 µM (HIV-1; viral replication, single-round infection; RT mutant K101E/M184I).
With C[C@@H]1CN(CCCn2c3ccccc3c3ccccc32)C[C@H](C)N1 the IC50 was 6.11 µM (HeLa; Ebola VLP entry).
For `CAQKFNGLTVLPPLL`, the responding donors was 9% (human CD4 T cells; AIM; peptide).
COc1ccc(OC)c(-n2ccnc2-c2cccc(O)c2)c1 gave a remaining activity of 42% (Lassa mammarenavirus; viral replication; Huh-7; 10 µM, 72 h).
With O=C(Nc1cccc(Cl)c1)C1CCCN(Cc2cccc(-c3ccc(F)cc3F)c2)C1 (centres unmarked) the efficacy was 47.3% (SARS-CoV-2; cytopathic effect; USA_WA1/2020; round 1, 5-point).
With N#CC(C#N)=NNc1cccc(Cl)c1 the FIC index was 0.75 (Escherichia coli; checkerboard; tetracycline-resistant; 42 µM, together with: tetracycline).
The maximum response of CNCCN(C)c1nc(NC(C)c2ccccc2)c2ccccc2n1 (centres unmarked) is reported as 67.9% (SARS-CoV-2; cytopathic effect; USA_WA1/2020; retest 8-point).
For COc1ccc(C[C@@H]2c3cc(Oc4cc(C[C@@H]5c6cc(O)c(OC)cc6CCN5C)ccc4O)c(OC)cc3CCN2C)cc1, the Kd was 271 µM (Spike glycoprotein; binding).
For `MEVTPSGTWL`, “frequency of responding donors” read 40 (AIM; peptide, CD8+ T cells from PBMC, human donors; HLA-B*40:01 restricted, unit not given; relative to: positive over tested donors).
With CCc1c(C(=O)C(N)=O)c2c(OCC(=O)O)cccc2n1Cc1ccccc1 the viability difference was 14.7% (C2C12; 10 µM, together with: WB venom; relative to: venom alone).
For Cc1cc(/C=C/C#N)cc(C)c1-n1cnc2cnc(Nc3ccc4cc(C#N)ccc4c3)nc21, the EC50 was less than 0.005 µM (HIV-1; viral replication, single-round infection; RT mutant M184V).
With CC(C)(Nc1nc(N2CCNCC2)nc2ccccc12)c1ccccc1 the maximum response was 39.7% (SARS-CoV-2; cytopathic effect; USA_WA1/2020; retest, 8-point, duplicates).
With C[C@@H]1O[C@@H](O[C@@H]2[C@@H](O)[C@H](OCCc3ccc(O)c(O)c3)O[C@H](CO)[C@H]2OC(=O)/C=C/c2ccc(O)c(O)c2)[C@H](O)[C@H](O)[C@H]1O the Kd was 13.9 µM (Spike glycoprotein; binding, biolayer interferometry).
CCc1ccc(Sc2cc(C(=O)NCCCN3CCC(C)CC3)c3ccccc3n2)cc1 gave an efficacy of 89.2% (SARS-CoV-2; cytopathic effect; USA_WA1/2020; retest, 8-point, duplicates).
With `GKGQQQQGQTVTKKS` the responding donors was 7% (human CD4 T cells; AIM; peptide).
Nc1nc(F)nc2c1ncn2[C@H]1C[C@H](O)[C@](CO)(CF)O1 has an IC50 of 0.11 ± 0.007 µM (HIV-1 K65R; MTT; MT4).
For `NSASFSTFK`, “response magnitude per positive donor” read 112 (AIM; peptide, CD8+ T cells from PBMC, human donors; dose not given).
With CN(C)CCNC(=O)c1ccc2c(c1)C1(CCN(CC3CC3)C1)CN2Cc1ccccc1 (centres unmarked) the AC50 was 5.01 µM (SARS-CoV-2; cytopathic effect, cell-based CPE; USA_WA1/2020; round 2, 5-point dilution).
Under “frequency of responding donors”, `LPNNTASWF` is recorded as 33 (AIM; peptide, CD8+ T cells from PBMC, human donors; HLA-B*07:02 restricted, unit not given; relative to: positive over tested donors).
The AC50 of Cc1cc(C)cc(-c2ccc(CN3CCCC3C(=O)NCc3cccc(F)c3)cc2)c1 (centres unmarked) is reported as 12.6 µM (SARS-CoV-2; cytopathic effect, cell-based CPE; USA_WA1/2020; round 1, 5-point dilution).

Excerpt of the above:
For `MEVTPSGTWL`, “frequency of responding donors” read 40 (AIM; peptide, CD8+ T cells from PBMC, human donors; HLA-B*40:01 restricted, unit not given; relative to: positive over tested donors).
With CCc1c(C(=O)C(N)=O)c2c(OCC(=O)O)cccc2n1Cc1ccccc1 the viability difference was 14.7% (C2C12; 10 µM, together with: WB venom; relative to: venom alone).
For Cc1cc(/C=C/C#N)cc(C)c1-n1cnc2cnc(Nc3ccc4cc(C#N)ccc4c3)nc21, the EC50 was less than 0.005 µM (HIV-1; viral replication, single-round infection; RT mutant M184V).
With CC(C)(Nc1nc(N2CCNCC2)nc2ccccc12)c1ccccc1 the maximum response was 39.7% (SARS-CoV-2; cytopathic effect; USA_WA1/2020; retest, 8-point, duplicates).
